Assay results collected from several papers.
Every numbered part comes from another study and shows a few of its results, in no order. Several values in a cell are separate wells, animals, samples, runs or records.
UniProt Q5S007, sequence (whole entry, unmodified, looked up): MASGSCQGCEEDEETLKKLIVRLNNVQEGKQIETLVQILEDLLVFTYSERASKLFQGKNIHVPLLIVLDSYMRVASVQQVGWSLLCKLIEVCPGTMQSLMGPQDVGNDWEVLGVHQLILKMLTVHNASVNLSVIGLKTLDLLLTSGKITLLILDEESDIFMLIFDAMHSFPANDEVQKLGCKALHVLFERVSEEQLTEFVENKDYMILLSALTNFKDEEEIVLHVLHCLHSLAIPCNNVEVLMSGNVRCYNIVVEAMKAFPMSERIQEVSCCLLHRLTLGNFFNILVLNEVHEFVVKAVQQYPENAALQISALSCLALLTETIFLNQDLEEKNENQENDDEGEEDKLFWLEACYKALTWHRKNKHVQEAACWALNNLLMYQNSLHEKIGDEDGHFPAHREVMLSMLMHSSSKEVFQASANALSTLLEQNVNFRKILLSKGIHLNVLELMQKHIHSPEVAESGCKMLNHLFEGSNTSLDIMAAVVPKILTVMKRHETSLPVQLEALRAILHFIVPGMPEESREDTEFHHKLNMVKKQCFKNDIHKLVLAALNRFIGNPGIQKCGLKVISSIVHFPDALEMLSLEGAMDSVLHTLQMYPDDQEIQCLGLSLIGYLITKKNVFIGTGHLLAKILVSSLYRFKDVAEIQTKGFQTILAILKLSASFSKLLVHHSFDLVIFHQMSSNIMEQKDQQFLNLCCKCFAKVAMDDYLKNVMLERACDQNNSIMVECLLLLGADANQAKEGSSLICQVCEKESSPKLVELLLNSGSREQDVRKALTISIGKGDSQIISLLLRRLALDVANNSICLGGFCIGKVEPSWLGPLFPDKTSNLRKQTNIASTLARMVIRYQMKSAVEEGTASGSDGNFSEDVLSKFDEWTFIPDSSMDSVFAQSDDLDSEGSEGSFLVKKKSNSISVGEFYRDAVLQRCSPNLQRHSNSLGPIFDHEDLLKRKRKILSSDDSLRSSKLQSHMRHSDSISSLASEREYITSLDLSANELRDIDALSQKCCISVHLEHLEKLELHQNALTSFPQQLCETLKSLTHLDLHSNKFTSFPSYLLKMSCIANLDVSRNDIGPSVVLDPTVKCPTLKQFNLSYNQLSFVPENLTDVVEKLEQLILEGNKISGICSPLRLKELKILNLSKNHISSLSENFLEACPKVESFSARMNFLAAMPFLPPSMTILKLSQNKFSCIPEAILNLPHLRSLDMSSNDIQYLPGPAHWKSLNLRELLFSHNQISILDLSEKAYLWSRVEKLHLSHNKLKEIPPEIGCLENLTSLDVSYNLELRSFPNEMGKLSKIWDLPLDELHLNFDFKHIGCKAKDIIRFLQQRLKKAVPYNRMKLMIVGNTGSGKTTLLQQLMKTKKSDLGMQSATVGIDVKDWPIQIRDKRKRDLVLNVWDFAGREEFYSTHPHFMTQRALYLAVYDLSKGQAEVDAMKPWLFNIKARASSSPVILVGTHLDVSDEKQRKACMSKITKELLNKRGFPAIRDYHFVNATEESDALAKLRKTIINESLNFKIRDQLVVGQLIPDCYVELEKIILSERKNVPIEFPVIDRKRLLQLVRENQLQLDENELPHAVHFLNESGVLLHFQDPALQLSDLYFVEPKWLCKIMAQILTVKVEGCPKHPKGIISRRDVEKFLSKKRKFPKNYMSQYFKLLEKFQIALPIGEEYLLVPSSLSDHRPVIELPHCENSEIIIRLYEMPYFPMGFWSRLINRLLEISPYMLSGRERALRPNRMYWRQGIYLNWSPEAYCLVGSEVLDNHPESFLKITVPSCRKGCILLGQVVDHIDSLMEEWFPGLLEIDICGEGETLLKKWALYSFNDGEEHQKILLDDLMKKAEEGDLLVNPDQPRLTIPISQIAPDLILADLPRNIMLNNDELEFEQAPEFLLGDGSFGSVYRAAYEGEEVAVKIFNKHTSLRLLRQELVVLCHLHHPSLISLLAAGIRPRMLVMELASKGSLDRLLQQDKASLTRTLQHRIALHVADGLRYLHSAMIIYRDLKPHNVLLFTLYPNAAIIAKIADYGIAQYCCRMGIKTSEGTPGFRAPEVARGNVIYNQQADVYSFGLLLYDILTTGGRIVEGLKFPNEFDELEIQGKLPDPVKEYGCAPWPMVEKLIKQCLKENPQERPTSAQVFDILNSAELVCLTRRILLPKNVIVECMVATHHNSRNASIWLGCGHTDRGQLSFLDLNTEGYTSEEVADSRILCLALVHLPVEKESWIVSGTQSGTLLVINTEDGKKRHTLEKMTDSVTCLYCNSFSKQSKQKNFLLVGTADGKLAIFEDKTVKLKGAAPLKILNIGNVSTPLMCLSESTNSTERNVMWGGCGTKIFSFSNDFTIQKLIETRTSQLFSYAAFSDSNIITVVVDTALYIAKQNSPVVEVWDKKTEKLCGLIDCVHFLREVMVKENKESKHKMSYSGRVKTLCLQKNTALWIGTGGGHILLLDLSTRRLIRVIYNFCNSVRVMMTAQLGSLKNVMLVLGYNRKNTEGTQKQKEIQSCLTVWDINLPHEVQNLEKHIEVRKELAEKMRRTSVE
UniProt P15056, sequence (whole entry, unmodified, looked up): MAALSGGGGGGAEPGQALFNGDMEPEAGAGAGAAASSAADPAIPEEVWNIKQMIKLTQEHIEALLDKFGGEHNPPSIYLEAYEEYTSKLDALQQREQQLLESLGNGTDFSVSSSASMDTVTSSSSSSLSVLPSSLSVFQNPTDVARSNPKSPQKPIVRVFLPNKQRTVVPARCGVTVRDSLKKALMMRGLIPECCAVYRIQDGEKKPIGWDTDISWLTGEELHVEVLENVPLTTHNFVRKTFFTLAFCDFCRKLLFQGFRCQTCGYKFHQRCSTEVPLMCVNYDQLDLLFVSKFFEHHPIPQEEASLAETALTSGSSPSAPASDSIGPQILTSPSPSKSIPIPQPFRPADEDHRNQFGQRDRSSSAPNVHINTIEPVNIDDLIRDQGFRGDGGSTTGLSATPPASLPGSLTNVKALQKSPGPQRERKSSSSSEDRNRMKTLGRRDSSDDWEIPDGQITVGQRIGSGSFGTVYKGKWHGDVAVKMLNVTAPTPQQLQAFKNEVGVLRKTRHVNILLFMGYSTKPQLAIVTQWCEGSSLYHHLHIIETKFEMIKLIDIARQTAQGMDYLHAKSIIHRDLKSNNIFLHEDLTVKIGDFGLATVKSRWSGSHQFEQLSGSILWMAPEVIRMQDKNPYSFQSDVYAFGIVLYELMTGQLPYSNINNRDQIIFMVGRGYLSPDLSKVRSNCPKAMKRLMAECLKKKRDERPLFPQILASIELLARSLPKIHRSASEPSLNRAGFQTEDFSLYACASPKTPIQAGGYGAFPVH
UniProt P07333, sequence (whole entry, looked up): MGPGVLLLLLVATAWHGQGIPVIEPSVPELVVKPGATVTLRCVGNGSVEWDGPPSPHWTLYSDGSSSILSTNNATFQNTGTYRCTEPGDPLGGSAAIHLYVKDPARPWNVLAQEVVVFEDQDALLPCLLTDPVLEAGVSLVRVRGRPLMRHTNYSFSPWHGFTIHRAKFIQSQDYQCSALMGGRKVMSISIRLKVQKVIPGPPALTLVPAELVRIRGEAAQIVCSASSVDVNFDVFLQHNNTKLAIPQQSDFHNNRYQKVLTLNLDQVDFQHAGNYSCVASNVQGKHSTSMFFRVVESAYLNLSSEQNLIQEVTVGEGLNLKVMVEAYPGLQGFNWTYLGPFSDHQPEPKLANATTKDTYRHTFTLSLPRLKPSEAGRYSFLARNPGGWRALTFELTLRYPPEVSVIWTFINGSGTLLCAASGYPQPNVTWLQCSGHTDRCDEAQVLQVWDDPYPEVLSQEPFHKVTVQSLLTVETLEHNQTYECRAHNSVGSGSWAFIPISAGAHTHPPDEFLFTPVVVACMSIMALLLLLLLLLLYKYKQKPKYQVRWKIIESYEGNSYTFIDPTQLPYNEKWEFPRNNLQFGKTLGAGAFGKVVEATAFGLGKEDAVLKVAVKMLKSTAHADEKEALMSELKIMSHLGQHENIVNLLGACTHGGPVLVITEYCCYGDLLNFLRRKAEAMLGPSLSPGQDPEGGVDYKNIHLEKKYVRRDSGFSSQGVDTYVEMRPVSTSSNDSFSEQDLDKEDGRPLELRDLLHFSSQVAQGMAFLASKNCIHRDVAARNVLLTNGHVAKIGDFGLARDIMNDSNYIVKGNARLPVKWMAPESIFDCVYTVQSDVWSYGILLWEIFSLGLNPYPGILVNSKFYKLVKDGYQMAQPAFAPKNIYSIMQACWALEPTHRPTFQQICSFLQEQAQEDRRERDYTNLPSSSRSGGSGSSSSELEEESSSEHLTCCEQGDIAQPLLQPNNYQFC
UniProt Q9Y4K4, sequence (whole entry, looked up): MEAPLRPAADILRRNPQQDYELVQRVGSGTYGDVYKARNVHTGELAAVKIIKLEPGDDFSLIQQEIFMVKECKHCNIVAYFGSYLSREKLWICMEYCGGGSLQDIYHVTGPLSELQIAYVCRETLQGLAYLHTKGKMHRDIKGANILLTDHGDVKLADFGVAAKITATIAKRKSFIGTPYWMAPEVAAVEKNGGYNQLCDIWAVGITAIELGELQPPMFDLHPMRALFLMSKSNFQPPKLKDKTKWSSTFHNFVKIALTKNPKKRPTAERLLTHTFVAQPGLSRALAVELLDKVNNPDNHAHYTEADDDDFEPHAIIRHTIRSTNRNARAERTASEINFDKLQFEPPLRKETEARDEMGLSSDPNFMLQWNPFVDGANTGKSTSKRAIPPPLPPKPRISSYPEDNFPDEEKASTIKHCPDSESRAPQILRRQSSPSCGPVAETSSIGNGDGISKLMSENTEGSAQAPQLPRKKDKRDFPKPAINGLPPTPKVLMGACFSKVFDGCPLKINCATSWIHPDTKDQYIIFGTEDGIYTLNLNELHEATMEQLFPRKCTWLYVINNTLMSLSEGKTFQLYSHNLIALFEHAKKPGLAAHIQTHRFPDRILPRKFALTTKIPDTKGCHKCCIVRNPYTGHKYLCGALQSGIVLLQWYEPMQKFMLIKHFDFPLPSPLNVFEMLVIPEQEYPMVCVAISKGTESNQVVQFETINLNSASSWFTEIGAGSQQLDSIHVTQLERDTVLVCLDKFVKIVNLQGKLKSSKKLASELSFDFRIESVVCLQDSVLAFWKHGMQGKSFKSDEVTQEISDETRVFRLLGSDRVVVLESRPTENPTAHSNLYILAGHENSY

Study 1 — effect on: binding; tested at: 1 µM
SMILES: Cc1ccc(NC(=O)c2ccnc(C(F)(F)F)c2)cc1-c1cc(OCCO)nc(N2CCOCC2)c1
| target | test | remaining binding |
| --- | --- | --- |
| PKN1 (Homo sapiens, UniProt Q16512) | – | 100% |
| KIT (Homo sapiens, UniProt P10721) | competition with immobilised ligand | 92% |
| SRPK2 (Homo sapiens, UniProt P78362) | – | 100% |
| MAP4K5 (Homo sapiens, UniProt Q9Y4K4) | competition with immobilised ligand | 98% |
| CSF1R (Homo sapiens, UniProt P07333) | competition with immobilised ligand | 93% |
| CSNK2A2 (Homo sapiens, UniProt P19784) | – | 71% |
| STK35 (Homo sapiens, UniProt Q8TDR2) | competition with immobilised ligand | 98% |
| WNK1 (Homo sapiens, UniProt Q9H4A3) | – | 84% |
| MAP3K13 (Homo sapiens, UniProt O43283) | competition with immobilised ligand | 94% |
| PIK3CG (Homo sapiens, UniProt P48736) | – | 81% |

Study 2 — species: human; sample: microsomes or S9; tested at: 2 µM; time: 0.5 h
| SMILES | remaining compound [%] |
| --- | --- |
| O=C(NCC1Cc2ccccc2CO1)c1cnn2c1OCCC2 (stereo not shown) | 85.4 |
| COC(=O)c1cc(OC)c(OC)cc1NC(=O)c1c(Br)cnn1C | 12.3 |
| CC(Nc1ncnc2c1NC(=O)CN2)c1cc2ccccc2nc1-c1ccccc1 (stereo not shown) | 9.59 |
| Nc1nc(N2C(=O)C3CC=CCC3C2=O)nn1-c1ccccc1 (stereo not shown) | 99 |
| CN1CCC(Nc2ccn(-c3ncccc3C(F)(F)F)n2)CC1 | 91.5 |
| CCc1nn2c(nnc3c(=O)n(NC(=O)c4ccccc4C)ccc32)c1-c1ccccc1 | > 99.9 |
| Cn1c(=O)c2sc3c(c2n(CC(N)=O)c1=O)CCCC3 | 49.5 |
| CC(=O)/N=C1\N(c2ccc(Cl)cc2Cl)C(=O)N(S(=O)(=O)c2ccc(Cl)cc2)C1(C)C(C)C (stereo not shown) | 8.74 |
| O=C(COc1ccc(Cl)cc1Cl)OCCNC1=NS(=O)(=O)c2ccccc21 | < 1 |

Study 3 — technique: competition with immobilised ligand; tested at: 1 µM
SMILES: CN(C)C(=O)Cn1cc(-c2nc([C@@](C)(c3ccc(-c4cnc(N)nc4)cc3)C3CC3)no2)cn1
| target | test | remaining binding |
| --- | --- | --- |
| PKMYT1 (Homo sapiens, UniProt Q99640) | cell-free assay | 88% |
| PRKACB (Homo sapiens, UniProt P22694) | cell-free assay | 100% |
| FLT3 (Homo sapiens, UniProt P36888, R834Q) | cell-free assay | 87% |
| PTK6 (Homo sapiens, UniProt Q13882) | cell-free assay | 100% |
| CDC42BPA (Homo sapiens, UniProt Q5VT25) | cell-free assay | 100% |
| PIP5K1A (Homo sapiens, UniProt Q99755) | cell-free assay | 90% |
| MAPK6 (Homo sapiens, UniProt Q16659) | cell-free assay | 91% |
| MAPK3 (Homo sapiens, UniProt P27361) | cell-free assay | 100% |
| ACVR2B (Homo sapiens, UniProt Q13705) | cell-free assay | 81% |
| CDK4 (Homo sapiens, UniProt P11802) | cell-free assay | 94% |
| PIK3CA (Homo sapiens, UniProt P42336, H1047L) | cell-free assay | 100% |
| GRK2 (Homo sapiens, UniProt P25098) | cell-free assay | 78% |
| STK24 (Homo sapiens, UniProt Q9Y6E0) | cell-free assay | 100% |
| STK17B (Homo sapiens, UniProt O94768) | cell-free assay | 88% |
| FLT4 (Homo sapiens, UniProt P35916) | cell-free assay | 88% |
| MAP4K3 (Homo sapiens, UniProt Q8IVH8) | cell-free assay | 100% |
| SYK (Homo sapiens, UniProt P43405) | cell-free assay | 73% |
| MAP3K5 (Homo sapiens, UniProt Q99683) | cell-free assay | 99% |
| BUB1 (Homo sapiens, UniProt O43683) | cell-free assay | 75% |
| BMPR1A (Homo sapiens, UniProt P36894) | binding | 100% |
| BRAF (Homo sapiens, UniProt P15056, V600E) | cell-free assay | 89% |
| CDKL3 (Homo sapiens, UniProt Q8IVW4) | binding | 94% |
| MAPK4 (Homo sapiens, UniProt P31152) | cell-free assay | 88% |
| LRRK2 (Homo sapiens, UniProt Q5S007, G2019S) | cell-free assay | 100% |
| SRPK3 (Homo sapiens, UniProt Q9UPE1) | cell-free assay | 85% |

Study 4 — effect on: binding; mode: competitor; technique: NanoBRET; cell line: HEK293
Compound: C=C(F)C(=O)N1CCN(c2nc(OC[C@@H]3CCCN3C)nc3c2CCN(c2cccc4cccc(Cl)c24)C3)C[C@@H]1CC#N
Target: GTPase HRas (HRAS, Homo sapiens, UniProt P01112)
| setting | normalized BRET |
| --- | --- |
| 9.77 nM | 92.7% |
| 247 nM | 92.7% and 96.6% |
| 38.1 pM | 93.7% |
| 6.67 µM | 140% and 144% |
| 10 µM | 123% |

Study 5 — organism: Sarcocystis neurona; effect on: parasite growth; tested at: 10 µM; setting: secondary screen
| Structure (SMILES) | inhibition [%] |
| --- | --- |
| COc1cc(C[C@@H](CO)[C@H](CO)Cc2ccc(O)c(OC)c2)ccc1O | -10.9 |
| C/C(=C\C(=O)OCCCCCCCCC(=O)O)C[C@@H]1OC[C@H](C[C@@H]2O[C@H]2[C@@H](C)[C@H](C)O)[C@@H](O)[C@H]1O | 4 |
| Cc1onc(-c2c(Cl)cccc2Cl)c1C(=O)N[C@@H]1C(=O)N2[C@@H]1SC(C)(C)[C@@H]2C(=O)O | -31.1 |
| O=C1c2cccc3c2[C@H](CCC3)CN1[C@@H]1CN2CCC1CC2 | -21.9 |
| CC(C)/N=c1\cc2n(-c3ccc(Cl)cc3)c3ccccc3nc-2cc1Nc1ccc(Cl)cc1 | 94.9 |
| Cc1ccnc2c1NC(=O)c1cccnc1N2C1CC1 | -37.7 |

For quick reference, copied from above (study 3):
| target | test | remaining binding |
| --- | --- | --- |
| ACVR2B (Homo sapiens, UniProt Q13705) | cell-free assay | 81% |
| CDK4 (Homo sapiens, UniProt P11802) | cell-free assay | 94% |
| PIK3CA (Homo sapiens, UniProt P42336, H1047L) | cell-free assay | 100% |
| GRK2 (Homo sapiens, UniProt P25098) | cell-free assay | 78% |
| STK24 (Homo sapiens, UniProt Q9Y6E0) | cell-free assay | 100% |
| STK17B (Homo sapiens, UniProt O94768) | cell-free assay | 88% |
| FLT4 (Homo sapiens, UniProt P35916) | cell-free assay | 88% |
| MAP4K3 (Homo sapiens, UniProt Q8IVH8) | cell-free assay | 100% |
| SYK (Homo sapiens, UniProt P43405) | cell-free assay | 73% |
